Assay results gathered from unrelated publications.
Each line is one published result; not all experiments were run side by side. “And” joins repeats or separate records; there may be more than shown. Numbers after ± are the reported error.

SMILES	test	system	setting	IC50
COc1cc(-c2cc(=O)c3c(O)c(OC)c(O)cc3o2)ccc1O	ABTS radical scavenging	–	–	12.4 ± 0.35 µg/mL
CCN(CC)c1ccc(/C=N/c2ccccc2Br)c(O)c1	ferric reducing power, FRAP	–	–	> 400 µM
O=C(O)c1cccnc1Nc1cccc(C(F)(F)F)c1	input conductance	vascular smooth muscle cells, guinea pig, SMA arteriole segments in situ	–	40 µM
O=C(Cc1ccc(Cl)cc1Cl)NNC(=S)N=Cc1ccc([N+](=O)[O-])cc1	iron chelation	cell-free	EDTA as standard	61.2 ± 2.83 µM
O=C1CC(N(CCc2ccccc2)C(=S)Nc2ccccc2)C(=O)N1c1ccc(Br)cc1 (stereo not drawn)	CoA-CPM signal reduction, CPM fluorescence thiol	cell-free biochemical	assay interference counter-screen, with: CoA replacing acetyl-CoA	> 125 µM
COc1cccc(/C=N/N=C/c2cccc(OC)c2)c1	nitric oxide scavenging	–	antioxidant	241 µM
CCOC(=O)C1=C(CCl)NC(=O)NC1c1cccc(OC)c1 (stereo not drawn)	nitric oxide scavenging	–	–	107 µM
Sc1nnc(-c2ccncc2)o1	CoA-CPM signal reduction, CPM fluorescence thiol	cell-free biochemical	assay interference counter-screen, with: CoA replacing acetyl-CoA	250 ± 90 µM
CC(=O)Oc1ccccc1C(=O)O	platelet aggregation, inhibitor	platelets	with: arachidonic acid 1 mmol/L	160 ± 20 µM
Clc1ccccc1/C=N/N=C/c1ccccc1Cl	nitric oxide scavenging	–	antioxidant	1640 µM
CCN(CC)c1ccc(/C=N/c2ccccc2F)c(O)c1	nitric oxide scavenging, sodium nitroprusside	–	–	79.4 µM
O=C1CC(N2CCC(c3nc4ccccc4o3)CC2)C(=O)N1c1cc(Cl)cc(Cl)c1 (stereo not drawn)	CoA-CPM signal reduction, CPM fluorescence thiol	cell-free biochemical	assay interference counter-screen, with: CoA replacing acetyl-CoA	> 125 µM
COc1ccc(C=NC(=S)NNC(=O)Cc2ccc(Cl)cc2Cl)cc1OC	iron chelation	cell-free	EDTA as standard	35.1 ± 1.31 µM
O=S1(=O)C=C(N2CCCC2)c2ccccc21	CoA-CPM signal reduction, CPM fluorescence thiol	cell-free biochemical	assay interference counter-screen, with: CoA replacing acetyl-CoA	> 125 µM
CC[C@H](C)[C@H](NC(C)=O)C(=O)N[C@H]1CSSC[C@@H](C(=O)N[C@H](C(N)=O)[C@@H](C)O)NC(=O)[C@H](CCCNC(=N)N)NC(=O)[C@H](Cc2c[nH]cn2)NC(=O)[C@](C)(CC)NC(=O)CNC(=O)[C@H](Cc2c[nH]c3ccccc23)NC(=O)[C@H](CC(=O)O)NC(=O)[C@H](CCC(N)=O)NC(=O)[C@H](Cc2c[nH]c3ccccc23)NC(=O)[C@H](C(C)C)NC1=O	complement activation, inhibitor, ELISA, measured: C5b-9	normal human serum	–	0.71 ± 0.07 µM
O=C1O[C@H]([C@@H](O)CO)C(O)=C1O	DPPH radical scavenging	–	–	112 µM
CCCCC1OC(=O)c2ccccc21 (stereo not drawn)	platelet aggregation, inhibitor	platelets	with: ADP 10 µmol/L	1340 ± 140 µM
COc1cc(/C=N/N=C/c2cc(OC)c(OC)c(OC)c2)cc(OC)c1OC	nitric oxide scavenging	–	antioxidant	378 µM
CC(=O)N[C@@H](CC(N)=O)C(=O)N[C@@H](CC(N)=O)C(=O)N[C@@H](CC(C)C)C(=O)N[C@H]1CSSC[C@@H](C(=O)N[C@H](C(N)=O)[C@@H](C)O)NC(=O)[C@H](CCCNC(=N)N)NC(=O)[C@H](Cc2c[nH]cn2)NC(=O)[C@H](Cc2cccc3ccccc23)NC(=O)CNC(=O)[C@H](Cc2c[nH]c3ccccc23)NC(=O)[C@H](CC(=O)O)NC(=O)[C@H](CCC(N)=O)NC(=O)[C@H](Cc2c[nH]c3ccccc23)NC(=O)[C@H](C(C)C)NC1=O	complement activation, inhibitor, ELISA, measured: C3b	normal human serum	–	2.75 ± 0.11 µM
COc1cc(C=NC(=S)NNC(=O)Cc2ccc(Cl)cc2Cl)cc(OC)c1OC	hydroxyl radical scavenging	–	–	28.3 ± 1.17 µM
O=C1Nc2ccccc2C1=Cc1ccccn1	platelet aggregation, inhibitor	platelets	with: collagen 15 µg/mL	3 µM
Brc1cccc(/C=N/N=C/c2cccc(Br)c2)c1	nitric oxide scavenging	–	antioxidant	873 µM
CCOC(=O)C1=C(CSC2=NCCS2)NC(=O)NC1c1cccc(Cl)c1 (stereo not drawn)	nitric oxide scavenging	–	–	107 µM
O=[N+]([O-])c1ccccc1/C=N/N=C/c1ccccc1[N+](=O)[O-]	ferric reducing antioxidant power, FRAP	–	–	> 3000 µM

SMILES	test	system	setting	IC50
CC[C@H](C)[C@H](NC(C)=O)C(=O)N[C@H]1CSSC[C@@H](C(=O)N[C@H](C(N)=O)[C@@H](C)O)NC(=O)[C@H](CCCNC(=N)N)NC(=O)[C@H](Cc2c[nH]cn2)NC(=O)[C@H](Cc2cccc3ccccc23)NC(=O)CNC(=O)[C@H](Cc2c[nH]c3ccccc23)NC(=O)[C@H](CC(=O)O)NC(=O)[C@H](CCC(N)=O)NC(=O)[C@H](Cc2c[nH]c3ccccc23)NC(=O)[C@H](C(C)C)NC1=O	complement activation, inhibitor, ELISA, measured: C3b	normal human serum	–	2.27 ± 0.39 µM
O=C(CSC1CC(=O)N(c2ccc(Br)cc2)C1=O)Nc1ccc(Cl)cc1 (stereo not drawn)	CoA-CPM signal reduction, CPM fluorescence thiol	cell-free biochemical	assay interference counter-screen, with: CoA replacing acetyl-CoA	> 125 µM
CN1CC(Oc2cnc(C#N)cc2-c2ccn3nc(NC(=O)C4CC4)cc3c2)C1	TNF release	mouse whole blood	with: LPS	0.6 µM
Nc1ccc(/C=N/N=C/c2ccc(N)cc2)cc1	nitric oxide scavenging	–	antioxidant	622 µM
C[C@@H]1O[C@@H](O[C@H]2[C@H](O[C@H]3CC[C@@]4(C)[C@@H](CC[C@]5(C)[C@@H]4CC=C4[C@@H]6CC(C)(C)CC[C@]6(C(=O)O)CC[C@]45C)[C@]3(C)CO)OC[C@H](O)[C@@H]2O)[C@H](O)[C@H](O)[C@H]1O	peroxynitrite scavenging, dihydrorhodamine fluorescence	–	–	130 ± 7.9 µM
CC[C@H](C)[C@H](NC(=O)[C@H](CO)NC(=O)[C@H](CCCNC(=N)N)NC(C)=O)C(=O)N[C@H]1CSSC[C@@H](C(=O)N[C@H](C(N)=O)[C@@H](C)O)NC(=O)[C@H](CCCNC(=N)N)NC(=O)[C@H](Cc2c[nH]cn2)NC(=O)[C@H](C)NC(=O)CNC(=O)[C@H](Cc2c[nH]c3ccccc23)NC(=O)[C@H](CC(=O)O)NC(=O)[C@H](CCC(N)=O)NC(=O)[C@H](Cc2ccc(O)cc2)NC(=O)[C@H](C(C)C)NC1=O	complement activation, inhibitor, ELISA, measured: C5b-9	normal human serum	–	0.88 ± 0.13 µM
Cc1c(CN2CCN(C(=O)[C@H](C)O)CC2)sc2c(N3CCOCC3)nc(-c3cnc(N)nc3)nc12	Akt phosphorylation	cancer patients, Melanoma primary tumour, plasma	–	0.0066 µg/mL
CC[C@H](C)[C@H](NC(=O)[C@H](CO)NC(=O)[C@H](CCCNC(=N)N)NC(C)=O)C(=O)N[C@H]1CSSC[C@@H](C(=O)N[C@H](C(N)=O)[C@@H](C)O)NC(=O)[C@H](CCCNC(=N)N)NC(=O)[C@H](Cc2c[nH]cn2)NC(=O)[C@H](Cc2cccc3ccccc23)NC(=O)CNC(=O)[C@H](Cc2c[nH]c3ccccc23)NC(=O)[C@H](CC(=O)O)NC(=O)[C@H](CCC(N)=O)NC(=O)[C@H](Cc2cccc3ccccc23)NC(=O)[C@H](C(C)C)NC1=O	complement activation, inhibitor, ELISA, measured: C5b-9	normal human serum	–	2.35 ± 0.16 µM
CCOC(=O)C1=C(CSC2=NCCS2)NC(=O)NC1c1cccc(F)c1 (stereo not drawn)	nitric oxide scavenging	–	–	154 µM
O=C(O)c1ccccc1Nc1cccc(C(F)(F)F)c1	input conductance	vascular smooth muscle cells, guinea pig, MA arteriole segments in situ	–	56 µM
Fc1ccc(/C=N/N=C/c2ccc(F)cc2)cc1	ferric reducing antioxidant power, FRAP	–	–	1220 µM
CC[C@H](C)[C@H](NC(=O)[C@H](CCCNC(=N)N)NC(=O)[C@H](CCC(=O)O)NC(C)=O)C(=O)N[C@H]1CSSC[C@@H](C(=O)N[C@H](C(N)=O)[C@@H](C)O)NC(=O)[C@H](CCCNC(=N)N)NC(=O)[C@H](Cc2c[nH]cn2)NC(=O)[C@H](C)NC(=O)CNC(=O)[C@H](Cc2c[nH]c3ccccc23)NC(=O)[C@H](CC(=O)O)NC(=O)[C@H](CCC(N)=O)NC(=O)[C@H](Cc2c[nH]c3ccccc23)NC(=O)[C@H](C(C)C)NC1=O	complement activation, inhibitor, ELISA, measured: C3b	normal human serum	–	0.84 ± 0.06 µM
Clc1ccc(/C=N/N=C/c2ccc(Cl)cc2Cl)c(Cl)c1	ferric reducing antioxidant power, FRAP	–	–	2250 µM
O=C(NNC1CC(=O)N(c2ccc(Br)cc2)C1=O)c1cccc(F)c1 (stereo not drawn)	CoA-CPM signal reduction, CPM fluorescence thiol	cell-free biochemical	assay interference counter-screen, with: CoA replacing acetyl-CoA	> 125 µM
O=C(COC(=O)c1ccccc1Nc1cccc(C(F)(F)F)c1)NNS(=O)(=O)c1ccccc1	nitric oxide scavenging, Griess	–	30 min, 25 °C, with: sodium nitroprusside 5 mM	238 µM and 239 µM
COc1ccccc1C=NC(=S)NNC(=O)Cc1ccc(Cl)cc1Cl	hydroxyl radical scavenging	–	–	64.7 ± 2.43 µM
C[C@@H]1O[C@@H](O[C@H]2[C@H](O)[C@@H](O)[C@H](OC[C@H]3O[C@@H](OC(=O)[C@]45CCC(C)(C)C[C@H]4C4=CC[C@@H]6[C@@]7(C)CC[C@H](O[C@@H]8OC[C@H](O)[C@H](O)[C@H]8O)[C@@](C)(CO)[C@@H]7CC[C@@]6(C)[C@]4(C)CC5)[C@H](O)[C@@H](O)[C@@H]3O)O[C@@H]2CO)[C@H](O)[C@H](O)[C@H]1O	peroxynitrite scavenging, dihydrorhodamine fluorescence	–	–	62.9 ± 5.25 µM
CCOC(=O)C1=C(CCl)NC(=O)NC1c1ccccc1 (stereo not drawn)	nitric oxide scavenging	–	–	226 µM
CC(=O)N[C@@H](CC(N)=O)C(=O)N[C@@H](CC(N)=O)C(=O)N[C@@H](CC(C)C)C(=O)N[C@H]1CSSC[C@@H](C(=O)N[C@H](C(N)=O)[C@@H](C)O)NC(=O)[C@H](CCCNC(=N)N)NC(=O)[C@H](Cc2c[nH]cn2)NC(=O)[C@H](Cc2cccc3ccccc23)NC(=O)CNC(=O)[C@H](Cc2c[nH]c3ccccc23)NC(=O)[C@H](CC(=O)O)NC(=O)[C@H](CCC(N)=O)NC(=O)[C@H](Cc2cccc3ccccc23)NC(=O)[C@H](C(C)C)NC1=O	complement activation, inhibitor, ELISA, measured: C5b-9	normal human serum	–	2.4 ± 0.25 µM
Sc1nnnn1-c1ccccc1	CoA-CPM signal reduction, CPM fluorescence thiol	cell-free biochemical	assay interference counter-screen, with: CoA replacing acetyl-CoA	86 ± 5 µM
Oc1ccc(/C=C/c2cc(O)cc(O)c2)cc1	DPPH radical scavenging	–	30 min, 37 °C	59 ± 1.06 µg/mL
O=S1(=O)C=C(SCCN2CCOCC2)c2ccccc21	CoA-CPM signal reduction, CPM fluorescence thiol	cell-free biochemical	assay interference counter-screen, with: CoA replacing acetyl-CoA	> 125 µM
CC[C@H](C)[C@H](NC(=O)[C@H](CO)NC(=O)[C@H](CCCNC(=N)N)NC(C)=O)C(=O)N[C@H]1CSSC[C@@H](C(=O)N[C@H](C(N)=O)[C@@H](C)O)NC(=O)[C@H](CCCNC(=N)N)NC(=O)[C@H](Cc2c[nH]cn2)NC(=O)[C@H](Cc2cccc3ccccc23)NC(=O)CNC(=O)[C@H](Cc2c[nH]c3ccccc23)NC(=O)[C@H](CC(=O)O)NC(=O)[C@H](CCC(N)=O)NC(=O)[C@H](Cc2c[nH]c3ccccc23)NC(=O)[C@H](C(C)C)NC1=O	complement activation, inhibitor, ELISA, measured: C5b-9	normal human serum	–	1.99 ± 0.11 µM
O=C1O[C@H]([C@@H](O)CO)C(O)=C1O	ABTS radical scavenging	–	–	12 ± 0.14 µg/mL

Excerpt of the above:
SMILES	test	system	setting	IC50
CCOC(=O)C1=C(CSC2=NCCS2)NC(=O)NC1c1cccc(F)c1 (stereo not drawn)	nitric oxide scavenging	–	–	154 µM
CCOC(=O)C1=C(CCl)NC(=O)NC1c1ccccc1 (stereo not drawn)	nitric oxide scavenging	–	–	226 µM
